Measurements pooled from the literature.
Several values in a cell are separate wells, animals, samples, runs or records. ± gives the spread as reported.
Target: Transporter (Slc6a2, Rattus norvegicus, UniProt Q63380)

Compound	test	test system	setting	endpoint	value
CNC(C)C(=O)c1ccccc1 (stereo not shown)	substrate release, releaser	rat brain synaptosomes	added: [3H]MPP+	EC50	22 nM
c1ccc(CCN2CCCCC2)cc1	ligand displacement, radioligand	–	–	Ki	8830 nM
COC(=O)C(c1ccccc1)C1CCCCN1 (stereo not shown)	–	rat	–	IC50	82.8 nM and 83 nM
CCCC(C(=O)c1ccc2c(c1)OCO2)N1CCCC1 (racemic)	transporter uptake, inhibitor, radiometric	–	–	IC50	16.8 nM
CC(C)N(C)CCc1c[nH]c2ccccc12	transporter uptake, inhibitor, radiometric	–	–	IC50	> 10000 nM
CC1NCCOC1c1ccccc1 (stereo not shown)	inhibitor	–	–	IC50	1200 nM
COc1ccc2[nH]cc(CCNC(C)C)c2c1	transporter uptake, inhibitor, radiometric	–	–	IC50	> 10000 nM
CNC(C)C(=O)c1ccc2c(c1)OCO2 (stereo not shown)	–	–	–	IC50	712 ± 53 nM
CNC(C)C(=O)c1cccc(C)c1 (stereo not shown)	releaser	–	–	EC50	27 nM
COC(=O)[C@H]1[C@@H](c2ccc(Cl)c(Cl)c2)C[C@@H]2CC[C@H]1N2C	ligand displacement, radioligand	–	cell membranes	Ki	7 nM
COc1ccc2[nH]cc(CCN)c2c1	transporter uptake, inhibitor, radiometric	–	–	IC50	> 10000 nM
CCCC(NC)C(=O)c1ccc2c(c1)OCO2 (stereo not shown)	transporter uptake, inhibitor, radiometric	–	–	IC50	401 nM
CNC(C)C(=O)c1ccccc1C (stereo not shown)	releaser	–	–	EC50	53 nM
CC(C)N(CCc1c[nH]c2ccccc12)C(C)C	transporter uptake, inhibitor, radiometric	–	–	IC50	> 10000 nM
CCC[C@H](C(=O)c1ccccc1)N1CCCC1	transporter uptake, inhibitor, radiometric	–	–	IC50	181 nM
CN1[C@H]2CC[C@@H]1[C@@H](C(=O)N1CCCC1)[C@@H](c1ccc(I)cc1)C2	reuptake	rat brain synaptosomes	–	IC50	21 nM

Some of these lines once more:
Compound	test	test system	setting	endpoint	value
CCCC(NC)C(=O)c1ccc2c(c1)OCO2 (stereo not shown)	transporter uptake, inhibitor, radiometric	–	–	IC50	401 nM
